Assay results pooled from the literature.
Parts stem from different laboratories: compare values within a part only. Values joined by “and” are separate records of one study, mostly repeats; a detail may differ.
Chain of UniProt O75676 (whole entry, looked up): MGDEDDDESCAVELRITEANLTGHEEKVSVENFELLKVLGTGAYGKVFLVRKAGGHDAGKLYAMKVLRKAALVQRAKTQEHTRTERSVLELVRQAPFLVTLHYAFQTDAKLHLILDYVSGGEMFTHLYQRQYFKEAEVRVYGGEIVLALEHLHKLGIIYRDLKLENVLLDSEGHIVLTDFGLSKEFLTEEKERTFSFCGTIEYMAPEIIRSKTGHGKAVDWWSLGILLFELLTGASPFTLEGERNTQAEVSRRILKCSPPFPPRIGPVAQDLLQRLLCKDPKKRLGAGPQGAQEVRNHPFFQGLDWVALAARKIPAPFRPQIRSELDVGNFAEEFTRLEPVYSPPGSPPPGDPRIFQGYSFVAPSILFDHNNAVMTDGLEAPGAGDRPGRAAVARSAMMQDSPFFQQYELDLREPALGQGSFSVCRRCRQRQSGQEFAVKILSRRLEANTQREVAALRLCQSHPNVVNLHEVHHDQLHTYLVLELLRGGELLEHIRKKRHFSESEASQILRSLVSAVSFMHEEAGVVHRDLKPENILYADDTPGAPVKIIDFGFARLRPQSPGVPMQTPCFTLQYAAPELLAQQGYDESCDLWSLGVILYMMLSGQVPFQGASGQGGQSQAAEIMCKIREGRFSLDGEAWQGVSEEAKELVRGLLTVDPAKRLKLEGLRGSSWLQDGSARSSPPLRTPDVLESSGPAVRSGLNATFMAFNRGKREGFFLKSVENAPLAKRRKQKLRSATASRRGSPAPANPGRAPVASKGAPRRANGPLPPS
Chain of UniProt Q86UX6 (whole entry, looked up): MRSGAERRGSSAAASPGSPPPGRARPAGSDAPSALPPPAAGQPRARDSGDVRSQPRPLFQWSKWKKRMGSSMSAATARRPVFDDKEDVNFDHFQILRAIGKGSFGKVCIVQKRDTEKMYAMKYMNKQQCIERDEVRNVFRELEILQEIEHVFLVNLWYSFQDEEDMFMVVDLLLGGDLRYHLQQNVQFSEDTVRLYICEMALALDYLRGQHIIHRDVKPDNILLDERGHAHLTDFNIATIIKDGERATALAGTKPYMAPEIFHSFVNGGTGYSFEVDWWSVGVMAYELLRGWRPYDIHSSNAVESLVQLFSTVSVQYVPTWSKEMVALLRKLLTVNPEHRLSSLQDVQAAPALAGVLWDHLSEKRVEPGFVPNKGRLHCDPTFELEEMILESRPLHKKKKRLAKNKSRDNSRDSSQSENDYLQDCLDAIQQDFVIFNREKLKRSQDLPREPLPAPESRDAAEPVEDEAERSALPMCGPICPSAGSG
Chain of UniProt Q9H1R3 (whole entry, looked up): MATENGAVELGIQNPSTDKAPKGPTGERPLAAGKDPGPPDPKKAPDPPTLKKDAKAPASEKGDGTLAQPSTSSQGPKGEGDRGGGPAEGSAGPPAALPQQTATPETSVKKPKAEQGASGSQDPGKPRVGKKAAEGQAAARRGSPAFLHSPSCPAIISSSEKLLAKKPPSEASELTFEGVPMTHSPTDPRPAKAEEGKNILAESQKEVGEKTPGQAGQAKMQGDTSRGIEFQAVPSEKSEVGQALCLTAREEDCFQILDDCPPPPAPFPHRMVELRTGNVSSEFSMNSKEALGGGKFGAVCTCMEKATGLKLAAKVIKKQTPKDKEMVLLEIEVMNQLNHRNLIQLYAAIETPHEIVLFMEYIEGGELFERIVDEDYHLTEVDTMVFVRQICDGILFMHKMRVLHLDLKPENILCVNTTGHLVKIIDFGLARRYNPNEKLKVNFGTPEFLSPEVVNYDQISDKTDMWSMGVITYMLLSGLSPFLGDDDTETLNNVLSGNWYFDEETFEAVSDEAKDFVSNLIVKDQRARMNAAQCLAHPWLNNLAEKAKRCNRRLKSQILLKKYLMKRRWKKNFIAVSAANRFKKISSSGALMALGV
Chain of UniProt Q9Y5S2 (whole entry, looked up): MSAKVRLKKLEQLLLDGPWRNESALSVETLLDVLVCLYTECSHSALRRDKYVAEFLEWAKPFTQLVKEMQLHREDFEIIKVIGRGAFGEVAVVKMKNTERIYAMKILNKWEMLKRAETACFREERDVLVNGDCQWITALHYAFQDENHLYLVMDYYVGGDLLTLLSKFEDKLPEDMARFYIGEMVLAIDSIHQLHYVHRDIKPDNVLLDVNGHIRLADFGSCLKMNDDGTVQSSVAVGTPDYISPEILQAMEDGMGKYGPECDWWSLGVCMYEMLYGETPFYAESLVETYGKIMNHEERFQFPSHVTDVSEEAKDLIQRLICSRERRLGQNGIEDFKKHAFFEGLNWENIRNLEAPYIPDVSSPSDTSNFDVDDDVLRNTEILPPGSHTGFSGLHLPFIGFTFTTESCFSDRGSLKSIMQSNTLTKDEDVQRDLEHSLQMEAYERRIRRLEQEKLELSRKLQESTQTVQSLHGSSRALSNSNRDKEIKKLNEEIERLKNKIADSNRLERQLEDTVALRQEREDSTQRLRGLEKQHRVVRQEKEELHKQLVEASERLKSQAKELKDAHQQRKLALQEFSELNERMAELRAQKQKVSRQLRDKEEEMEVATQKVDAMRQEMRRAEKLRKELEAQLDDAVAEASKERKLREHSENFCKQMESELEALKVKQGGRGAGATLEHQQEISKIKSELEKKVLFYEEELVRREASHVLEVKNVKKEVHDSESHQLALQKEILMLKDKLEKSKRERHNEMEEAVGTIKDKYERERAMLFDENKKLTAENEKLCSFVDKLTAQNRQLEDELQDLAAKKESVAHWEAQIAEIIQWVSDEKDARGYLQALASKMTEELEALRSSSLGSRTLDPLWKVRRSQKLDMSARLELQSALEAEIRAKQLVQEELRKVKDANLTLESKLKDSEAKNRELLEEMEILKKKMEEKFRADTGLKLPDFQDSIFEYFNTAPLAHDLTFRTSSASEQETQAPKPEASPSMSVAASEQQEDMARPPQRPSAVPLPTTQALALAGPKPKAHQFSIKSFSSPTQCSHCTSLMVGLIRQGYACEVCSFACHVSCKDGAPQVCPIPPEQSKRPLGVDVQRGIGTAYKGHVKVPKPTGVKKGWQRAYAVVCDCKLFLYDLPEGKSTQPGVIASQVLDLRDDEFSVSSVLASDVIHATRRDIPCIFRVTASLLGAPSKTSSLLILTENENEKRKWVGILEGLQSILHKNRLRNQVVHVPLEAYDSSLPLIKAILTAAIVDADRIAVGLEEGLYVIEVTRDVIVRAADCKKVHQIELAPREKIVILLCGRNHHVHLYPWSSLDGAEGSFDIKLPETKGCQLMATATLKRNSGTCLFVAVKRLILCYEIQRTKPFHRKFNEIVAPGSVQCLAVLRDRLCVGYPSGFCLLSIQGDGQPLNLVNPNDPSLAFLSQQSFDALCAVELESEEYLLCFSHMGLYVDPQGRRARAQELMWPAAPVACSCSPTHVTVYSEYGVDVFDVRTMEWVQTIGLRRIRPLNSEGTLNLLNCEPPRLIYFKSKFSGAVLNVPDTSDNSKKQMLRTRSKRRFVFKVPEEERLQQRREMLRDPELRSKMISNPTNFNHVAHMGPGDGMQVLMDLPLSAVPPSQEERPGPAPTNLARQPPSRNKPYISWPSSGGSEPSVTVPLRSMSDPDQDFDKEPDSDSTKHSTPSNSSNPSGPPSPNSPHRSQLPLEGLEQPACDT

Series 1
Method: exponential regression of PRP log k'
Structure (SMILES)	logD (1,9-decadiene/water)
Cc1ncsc1-c1ccc(CNC(=O)[C@@H]2C[C@@H](O)CN2C(=O)[C@@H](NC(=O)CCCCCOC(=O)CC23C[C@H]4C[C@@H](C2)C[C@@H](C3)C4)C(C)(C)C)cc1	1.96
COCC(=O)NCCCCCC(=O)N[C@H](C(=O)N1C[C@H](O)C[C@H]1C(=O)NCc1ccc(-c2scnc2C)cc1)C(C)(C)C	-6.21
CCCC(=O)NCCCCCC(=O)N[C@H](C(=O)N1C[C@H](O)C[C@H]1C(=O)NCc1ccc(-c2scnc2C)cc1)C(C)(C)C	-4.89
Cc1ncsc1-c1ccc(CNC(=O)[C@@H]2C[C@@H](O)CN2C(=O)[C@@H](NC(=O)CCCCCOC(=O)CC(c2ccccc2)c2ccccc2)C(C)(C)C)cc1	1.25

Series 2
Target: Receptor tyrosine-protein kinase erbB-4 (ERBB4, Homo sapiens, UniProt Q15303)
Chain of UniProt Q15303 (whole entry, looked up): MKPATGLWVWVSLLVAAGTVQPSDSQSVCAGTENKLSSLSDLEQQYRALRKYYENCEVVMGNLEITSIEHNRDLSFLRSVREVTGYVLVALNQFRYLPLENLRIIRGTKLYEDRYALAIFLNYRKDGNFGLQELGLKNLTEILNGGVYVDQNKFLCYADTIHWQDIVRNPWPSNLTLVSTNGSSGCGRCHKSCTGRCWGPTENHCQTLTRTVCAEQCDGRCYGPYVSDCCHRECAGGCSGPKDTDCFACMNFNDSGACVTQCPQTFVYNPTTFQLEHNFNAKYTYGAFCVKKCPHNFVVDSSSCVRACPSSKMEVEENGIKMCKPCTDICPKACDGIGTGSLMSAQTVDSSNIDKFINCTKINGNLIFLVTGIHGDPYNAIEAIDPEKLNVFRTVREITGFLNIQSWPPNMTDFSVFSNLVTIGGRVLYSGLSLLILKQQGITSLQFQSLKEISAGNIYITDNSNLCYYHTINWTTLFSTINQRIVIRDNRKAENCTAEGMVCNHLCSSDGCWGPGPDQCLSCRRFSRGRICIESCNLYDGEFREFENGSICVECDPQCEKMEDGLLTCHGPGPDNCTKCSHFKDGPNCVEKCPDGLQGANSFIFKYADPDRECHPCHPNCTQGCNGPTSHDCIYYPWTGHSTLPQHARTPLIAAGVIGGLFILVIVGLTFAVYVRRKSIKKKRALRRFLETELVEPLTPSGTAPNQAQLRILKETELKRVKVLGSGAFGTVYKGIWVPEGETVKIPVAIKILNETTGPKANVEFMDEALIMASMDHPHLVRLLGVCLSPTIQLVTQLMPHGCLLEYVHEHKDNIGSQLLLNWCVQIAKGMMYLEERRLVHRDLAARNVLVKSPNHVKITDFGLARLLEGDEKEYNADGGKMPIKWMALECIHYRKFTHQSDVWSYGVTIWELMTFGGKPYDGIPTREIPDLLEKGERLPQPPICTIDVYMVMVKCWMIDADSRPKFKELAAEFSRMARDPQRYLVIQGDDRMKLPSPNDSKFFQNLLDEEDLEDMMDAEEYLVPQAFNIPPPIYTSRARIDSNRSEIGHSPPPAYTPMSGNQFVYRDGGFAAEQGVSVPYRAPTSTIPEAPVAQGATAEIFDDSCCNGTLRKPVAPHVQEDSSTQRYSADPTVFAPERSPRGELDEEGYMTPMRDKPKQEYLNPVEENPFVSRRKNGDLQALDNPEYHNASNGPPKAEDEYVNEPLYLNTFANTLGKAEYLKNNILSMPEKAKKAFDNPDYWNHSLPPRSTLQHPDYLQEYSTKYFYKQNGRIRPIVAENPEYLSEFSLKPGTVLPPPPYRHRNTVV
Observed: enzyme activity
Mode: inhibitor
Concentration: 0.5 µM
Reference: control
SMILES	remaining activity [%]
O=C(Nc1cccc(Nc2cc(Nc3cccc(C(F)(F)F)c3)ncn2)c1)C1CC1	99.2
Nc1ncnc2n[nH]c(Nc3ccc(F)cc3)c12	121
CC(C)[C@H](CO)Nc1nc(Nc2cc(N)cc(Cl)c2)c2ncn(C(C)C)c2n1	131
CCOC(=O)c1c(C)[nH]c(/C=C2\C(=O)Nc3ccccc32)c1C	71.2
Cc1ccc(Nc2nccc(N(C)c3ccc4c(C)n(C)nc4c3)n2)cc1S(N)(=O)=O	86.9
Oc1ccc(-c2nc(-c3ccncc3)c(-c3ccc(F)cc3)[nH]2)cc1	83.1
O=S(=O)(c1cccc2cnccc12)N1CCCNCC1	102
OCC(O)CCON=C1C(c2c(O)[nH]c3ccccc23)=Nc2ccccc21 (centres unmarked)	97.5
COc1ccc(CNC(=O)Nc2ncc([N+](=O)[O-])s2)cc1	95.2
O=C(O)c1ccc2c3c1cccc3c(=O)n1c3ccccc3nc21	105
O=C(CCCc1ccc(-c2ccccc2F)cc1)Nc1ccc(O)cc1	107
Cn1c2ccccc2c2c3c(c4c5ccccc5n(CCC#N)c4c21)CNC3=O	100
O=C1NC(=O)C(c2cn(CCCO)c3ncccc23)=C1c1cnccn1	115
C#Cc1cccc(Nc2ncnc3cc(OCCOC)c(OCCOC)cc23)c1	61.4

Series 3
Compound: CC(C)(O)c1cncc(-c2nc3ccc(F)cc3n2C2CC2)c1
Observed: cell-free assay
Method: competition with immobilised ligand
Concentration: 1 µM
target	remaining binding [%]
MYLK2 (Homo sapiens, UniProt Q9H1R3)	97
STK11 (Homo sapiens, UniProt Q15831)	98
CSNK1D (Homo sapiens, UniProt P48730)	100
STK32C (Homo sapiens, UniProt Q86UX6)	100
GSK3B (Homo sapiens, UniProt P49841)	100
Ribosomal protein S6 kinase alpha-4, N-terminal kinase domain (RPS6KA4, Homo sapiens, UniProt O75676)	91
CDC42BPB (Homo sapiens, UniProt Q9Y5S2)	100
EGFR (Homo sapiens, UniProt P00533, T790M)	90

Series 4
Compound: CC(C)(C(=O)O)[C@H](NC(=O)Cc1cccc(I)c1)c1ccc2oc(=O)[nH]c2c1
Method: Incucyte 3D growth
Concentration: 30 µM
Reading: higher = more growth
cell line	time	spheroid area
A375	378.52 h	1.83e+08 a.u. and 1.9e+08 a.u. and 1.65e+08 a.u. and 1.76e+08 a.u. and 1.69e+08 a.u. and 1.59e+08 a.u.
IPC-298	156 h	2.61e+07 a.u. and 2.7e+07 a.u. and 3.02e+07 a.u. and 2.6e+07 a.u. and 3.23e+07 a.u. and 2.28e+07 a.u.
A375	66 h	3.97e+07 a.u. and 4.4e+07 a.u. and 3.16e+07 a.u. and 1.67e+07 a.u. and 4.03e+07 a.u. and 4.36e+07 a.u.

A few entries again (series 3):
target	remaining binding [%]
MYLK2 (Homo sapiens, UniProt Q9H1R3)	97
STK11 (Homo sapiens, UniProt Q15831)	98
